# Measured values gathered from unrelated publications.
# Every numbered part comes from another study and shows a few of its results, in no order. Changes are numbered by the printed parent chain.
# Chain of UniProt O15294 (whole entry, looked up): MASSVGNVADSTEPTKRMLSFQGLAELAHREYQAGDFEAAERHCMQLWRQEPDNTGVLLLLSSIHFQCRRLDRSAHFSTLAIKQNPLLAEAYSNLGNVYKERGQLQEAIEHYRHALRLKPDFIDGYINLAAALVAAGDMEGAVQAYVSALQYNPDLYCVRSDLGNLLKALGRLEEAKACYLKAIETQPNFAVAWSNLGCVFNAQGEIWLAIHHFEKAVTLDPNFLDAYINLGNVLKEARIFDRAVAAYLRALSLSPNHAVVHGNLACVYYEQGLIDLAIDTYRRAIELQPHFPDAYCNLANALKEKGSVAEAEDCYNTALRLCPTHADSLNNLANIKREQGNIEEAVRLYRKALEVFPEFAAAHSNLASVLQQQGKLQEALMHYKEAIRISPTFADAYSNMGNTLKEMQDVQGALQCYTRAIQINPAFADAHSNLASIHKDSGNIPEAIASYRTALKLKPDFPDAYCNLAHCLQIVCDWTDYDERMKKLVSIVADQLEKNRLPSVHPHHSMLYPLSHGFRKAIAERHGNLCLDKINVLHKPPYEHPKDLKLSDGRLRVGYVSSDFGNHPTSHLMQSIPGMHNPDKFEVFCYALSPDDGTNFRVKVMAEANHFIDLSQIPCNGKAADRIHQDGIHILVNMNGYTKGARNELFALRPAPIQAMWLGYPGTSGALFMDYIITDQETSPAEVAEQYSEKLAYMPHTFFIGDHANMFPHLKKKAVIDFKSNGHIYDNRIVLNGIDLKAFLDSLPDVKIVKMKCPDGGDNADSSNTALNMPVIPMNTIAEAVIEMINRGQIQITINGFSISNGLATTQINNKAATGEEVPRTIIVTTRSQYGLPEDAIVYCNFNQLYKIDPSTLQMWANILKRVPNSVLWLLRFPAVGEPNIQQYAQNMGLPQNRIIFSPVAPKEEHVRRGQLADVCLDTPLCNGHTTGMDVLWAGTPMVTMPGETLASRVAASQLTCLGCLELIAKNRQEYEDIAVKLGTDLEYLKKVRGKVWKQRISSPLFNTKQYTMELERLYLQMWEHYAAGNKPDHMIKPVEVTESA

# Study 1
# Target: RNA binding protein fox-1 homolog 2, RRM domain, GST-SBP tag (RBFOX2, Homo sapiens, UniProt O43251-10, residues 100-194)
# Technique: RNA Bind-n-Seq
# Molecule type: RNA
# Medium: in vitro
# Tested at: 365 nM
# Setting: natural RNA segment, single round, ends assumed
# Reference: no-protein control
# Reading: higher = stronger binding
# Constant ends, left off below: GGGAGUUCUACAGUCCGACGAUC … UGGAAUUCUCGGGUGCCAA
# Residues (chain): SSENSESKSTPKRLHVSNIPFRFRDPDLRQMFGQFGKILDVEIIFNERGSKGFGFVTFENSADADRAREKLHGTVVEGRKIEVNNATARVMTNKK
Sequence,RBNS enrichment (R)
UUUUUUCUUUUGUGGACCACAGGAAGGAAGAUUUAUUUUGAUAUUGAUACUUUAAAAGGACUUUAUAUUUGUAACAUUGAUGUUAACCAGUUUAUUAGUUUAAAUCAGUA,0.568
AAGCAAGCAAAAUGCAAACCAAACCAUUAUUCAUUUAUUGGCUUAAGUAUGCUUUCUCCUGAAAACUUUAGCAUUGGGUGCAAAUAUUCAGUAUGGUUCUCGGAGUCCAA,0.339
UGUCUUAGUGGAGUCAGAGCCCUGUUUGGUAUGUGUUUUUCAUGCUAAGUCUAAAUUGUCUUUUCAUUUCAUGAUGCAUUUUUUCUCUUUUGUCAGGAUAACAUCAUAUA,0.283
GGCAGCUGAUCGCCCUGCGUGCUGUGUCGCGCUGCUUUGUCCCAGACACAAACCAGCACGUCAAGGGCCUAGCUCCUCCCCACCCCGGCAUUUCAGCGUCAAGUGCACUU,0.356
AAAGCAAGUUAGAACGGGCUGGAUAGCCAAAGAGGCAGCCAUUCGGACCUAGGAAGUUGGGGUCUGUAGUAUGCCUGGAUUUUCUAUUAUUCAUGAGAUUUGUACAAACC,1.22
UUCCACAAAAUCAGUGUCCUGUUUGGGCCAGUGUCUACAGAGCCUCAGUCCCACUUGGUUUCUGAGUGCCUCUUUUCUCUUCUGUGUCUUCUCUUCCCUUGUCCUUCCUC,0.317
UAGGUGGACUUAAAUCCCAACAGGGUCACUUGAUAAUUAUAGCCAUAGAAAUGCAGAUGCAGGUAACUGCUUUUACCCUUUACCGUCCUCAGGUGAGUCUCCUAGAUCAA,0.348
CCUCUUCCUCUGCCGGGAGGGUGUUUUCAACUCCAAACCCCAGAGAGGGGUUGUAGAUUGGGUCCAGCUUUGCUUCAGUGUGUGGAAAUGUCUCGUGGGGUGGCAUCGGG,1.26

# Study 2
# Target: Centromere-binding protein 1, full length, N-terminal tag (CBF1, Saccharomyces cerevisiae, UniProt P17106, residues 1-351)
# Chain of UniProt P17106 (whole entry, looked up): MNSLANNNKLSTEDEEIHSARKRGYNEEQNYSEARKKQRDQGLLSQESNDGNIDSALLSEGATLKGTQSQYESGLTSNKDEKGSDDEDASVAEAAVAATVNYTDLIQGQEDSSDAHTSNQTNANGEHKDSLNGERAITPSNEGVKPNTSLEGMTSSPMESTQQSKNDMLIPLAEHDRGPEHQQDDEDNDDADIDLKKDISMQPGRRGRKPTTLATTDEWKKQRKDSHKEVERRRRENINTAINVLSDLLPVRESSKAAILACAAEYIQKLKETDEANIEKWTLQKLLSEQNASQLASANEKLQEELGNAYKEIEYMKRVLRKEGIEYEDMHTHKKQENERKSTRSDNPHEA
# Technique: protein-binding microarray
# Molecule type: double-stranded DNA, one strand shown
# Medium: in vitro
# Tested at: 0.8 µM
# Setting: whole 60-bp probe, no competitor
# Reading: higher = stronger binding
# Constant ends, left off below: … GTCTTGATTCGCTTGACGCTGCTG
Sequence,fluorescence intensity
GAATTGGGTATTCATCATGCGCTGCTGTGGGTATAG,520 a.u.
CTACCCTGGTACCACCACCTAATATCTGGCTTTTTC,513 a.u.
CTAGTCAAAAAGTGTCAATCACCTGGATGCATATTC,739 a.u.
GAAGACTTTTCTGGTCACGTGACCTTTTTTTCTTAG,64200 a.u.
GAAGGGGAAGGCACAGGAGATACCCCCACTAAATAG,479 a.u.
CTAATGCCTTACCGGAACGTGGATTAAAAGGAGTTC,546 a.u.
CTACAAGAAGCAACAGCTGAGATATTTGTTTCTTTC,521 a.u.
CCTAACTACTATACACGCATGGAATAGCTTCGTACA,541 a.u.

# Study 3
# Target: JUN, bZIP domain (human)
# Technique: DHFR protein complementation
# Medium: yeast
# Setting: single substitutions, most at no-binding floor
# Reference: wild-type JUN-FOS pair
# Reading: higher = stronger binding
# Starting sequence: JUN, bZIP domain (human); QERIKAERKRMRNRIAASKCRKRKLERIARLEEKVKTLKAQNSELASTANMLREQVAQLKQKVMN
Variant,binding fitness [natural log]
A46P,-1.35
L31C,-1.27
E33P,-1.29
V56T,-1.22
L45P,-1.43

# Single results of other studies
Molecule,target,assay,test system,setting,scale,measurement,value
"PhoQ, residues 284 288 289 292 302 303 ALSMDL","PhoP, residues 12 14 15 18 19 VQALL (Escherichia coli, UniProt P23836)","Sort-seq, refers to: YFP reporter",E. coli,"PhoQ-PhoP variant library, added: 10 µM Mg2+","reference: high Mg2+ state, higher = stronger signaling",fold induction,10.4
VPLYHERHHHGPHE,"UDP-N-acetylglucosamine--peptide N-acetylglucosaminyltransferase 110 kDa subunit (OGT, Homo sapiens, UniProt O15294)","binding, phage display NGS",peptide,concentration not given,reference: input library,enrichment fold change,6.56

# A few entries again (study 2):
Sequence,fluorescence intensity
CTAATGCCTTACCGGAACGTGGATTAAAAGGAGTTC,546 a.u.
CTACAAGAAGCAACAGCTGAGATATTTGTTTCTTTC,521 a.u.
CCTAACTACTATACACGCATGGAATAGCTTCGTACA,541 a.u.
